Measured values collected from several papers.
Protocols differ between the studies behind these lines. Numbers after ± are the reported error.
UCHL1: Ubiquitin carboxyl-terminal hydrolase isozyme L1 (UCHL1, Homo sapiens, UniProt P09936)
Sequence of UniProt P09936 (whole entry, looked up): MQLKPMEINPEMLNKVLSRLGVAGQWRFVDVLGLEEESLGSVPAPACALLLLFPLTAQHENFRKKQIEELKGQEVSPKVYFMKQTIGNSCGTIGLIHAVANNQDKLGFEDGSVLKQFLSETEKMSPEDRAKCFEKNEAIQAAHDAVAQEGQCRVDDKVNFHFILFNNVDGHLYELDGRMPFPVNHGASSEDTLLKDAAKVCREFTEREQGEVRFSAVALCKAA
Sequence of UniProt Q07794 (whole entry, looked up): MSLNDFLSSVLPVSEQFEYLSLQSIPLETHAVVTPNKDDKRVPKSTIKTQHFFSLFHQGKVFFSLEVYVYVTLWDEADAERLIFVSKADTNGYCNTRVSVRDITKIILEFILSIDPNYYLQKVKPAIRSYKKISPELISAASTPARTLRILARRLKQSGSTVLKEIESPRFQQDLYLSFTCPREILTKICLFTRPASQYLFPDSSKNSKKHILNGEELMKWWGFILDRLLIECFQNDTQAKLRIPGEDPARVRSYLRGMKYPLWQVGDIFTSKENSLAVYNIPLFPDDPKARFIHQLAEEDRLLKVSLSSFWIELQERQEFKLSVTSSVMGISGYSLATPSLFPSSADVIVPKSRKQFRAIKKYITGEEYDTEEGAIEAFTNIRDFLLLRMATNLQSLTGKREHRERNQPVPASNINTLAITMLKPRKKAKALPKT

COc1cc2c3cc1Oc1c(OC)c(OC)cc4c1[C@@H](Cc1ccc(O)c(c1)Oc1ccc(cc1)C[C@@H]3N(C)CC2)N(C)CC4 — remaining compound (mouse plasma, K3EDTA; 2 h, on ice): 98%
NC/C(=C\F)COc1cccc(Cn2c(=S)[nH]c(=O)c3[nH]cnc32)c1 — remaining compound (human plasma; 1 µM, 1 h): 100%
C/C(=N\c1ccc(O)cc1)c1cc2ccccc2n1C — remaining compound (rat plasma; 1.5 ng/mL, time not given, 3 freeze-thaw cycles; relative to: nominal): 96.1 ± 8.2%
O=C(CCl)NC(=O)NCCc1cccs1 — labelling (UCHL1; covalent, intact protein LC-MS; 12.5 µM): 44.8%
Cc1cc(NC(=O)c2cccc(NC(=O)/C=C/CN(C)C)c2)ccc1Nc1nccc(-c2cccnc2)n1 — remaining compound (rat Wistar male, plasma; 1 µM, 60 min): 92%
Cc1cccc(CNC(=O)c2cn(CCNC(=O)c3ccccc3Sc3c([N+](=O)[O-])ncn3C)c3cc4c(cc3c2=O)OCO4)n1 — remaining compound (human, whole blood; 1 µM, 0.25 h): 93.3%
NCc1cc2c(cc1F)C(=O)N(C1CCC(=O)NC1=O)C2 (stereo not drawn) — remaining compound (human, mixed sex, whole blood; 3 h): > 95%
Clc1cccc(Nc2nc(-c3ccncc3)no2)c1 — IC50 (Histone acetyltransferase RTT109, with Vps75 (Saccharomyces cerevisiae, UniProt Q07794); enzyme activity, inhibitor, HTS, CPM-based, dose response): > 125 µM
CC(C)C[C@H](NC(=O)[C@H](CC(C)C)NC(=O)CNC(=O)[C@H](C)NC(=O)[C@H](C)NC(=O)[C@H](CCCNC(=N)N)NC(=O)CNC(=O)CCCCNC(=O)CCCCNC(=O)CCCCNC(=O)[C@H](CCCCN)NC(=O)[C@H](Cc1ccc(O)cc1)NC(=O)CCc1c[nH]c2ccccc12)C(N)=O — remaining compound (Sprague-Dawley rat, male, plasma; 1 µM, 0.25 h): 86 ± 9%
N#CC(=Cc1cccc(O)c1)C(=O)Nc1ccccc1C(=O)O — labelling (UCHL1; covalent, intact protein LC-MS; 12.5 µM): 40.4%
CC(C)[N+](C)(CCOC(=O)C1c2ccccc2Oc2ccccc21)C(C)C — remaining compound (human, both sexes, whole blood; 5 µM, 15 min): 80.2%
CC(C)C[C@H](NC(=O)[C@H](CCc1ccccc1)NC(=O)CN1CCOCC1)C(=O)N[C@@H](Cc1ccccc1)C(=O)N[C@@H](CC(C)C)C(=O)[C@@]1(C)CO1 — remaining compound (Sprague Dawley rat, male, rat liver homogenate; 1 µM, 10 min, 37 °C): < 10%
